{"data": "Measurements of several laboratories", "note": "Parts stem from different laboratories: compare values within a part only. Substitutions count along the parent as printed."}
{"data": "Study 1", "target": "NFE2L2, bZIP domain (human)", "technique": "DHFR protein complementation", "matrix": "yeast", "setting": "single substitutions, most at no-binding floor", "reference": "wild-type JUN-FOS pair", "reading": "higher = stronger binding", "starting sequence": "JUN, bZIP domain (human); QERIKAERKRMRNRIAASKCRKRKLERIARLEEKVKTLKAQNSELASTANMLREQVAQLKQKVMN; partner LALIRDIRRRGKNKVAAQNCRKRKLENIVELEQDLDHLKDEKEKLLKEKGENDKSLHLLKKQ"}
{"Substitution": "E32G", "binding fitness [natural log]": -1.44}
{"Substitution": "E32Q", "binding fitness [natural log]": -1.54}
{"Substitution": "L38E", "binding fitness [natural log]": -1.51}
{"Substitution": "R30K", "binding fitness [natural log]": -1.33}
{"Substitution": "L31R", "binding fitness [natural log]": -1.46}
{"Substitution": "V56R", "binding fitness [natural log]": -1.51}
{"Substitution": "S47W", "binding fitness [natural log]": -1.46}
{"Substitution": "Q41S", "binding fitness [natural log]": -1.51}
{"Substitution": "N42P", "binding fitness [natural log]": -1.47}
{"Substitution": "K36C", "binding fitness [natural log]": -1.36}
{"Substitution": "L31T", "binding fitness [natural log]": -1.53}
{"Substitution": "N42E", "binding fitness [natural log]": -1.48}
{"Substitution": "Q55K", "binding fitness [natural log]": -1.25}
{"Substitution": "A57V", "binding fitness [natural log]": -1.17}
{"Substitution": "Q55A", "binding fitness [natural log]": -1.44}
{"Substitution": "L38V", "binding fitness [natural log]": -1.36}
{"Substitution": "E33P", "binding fitness [natural log]": -1.48}
{"Substitution": "V56K", "binding fitness [natural log]": -1.53}
{"Substitution": "I28S", "binding fitness [natural log]": -1.47}
{"Substitution": "Q41I", "binding fitness [natural log]": -1.2}
{"Substitution": "E44T", "binding fitness [natural log]": -1.51}
{"data": "Study 2", "target": "CCND3, cyclin fold, Cln2 fusion (human)", "technique": "yeast growth competition, sequencing", "matrix": "yeast", "setting": "weak parent motif", "reference": "not given", "reading": "higher = stronger binding", "starting sequence": "SCAPER docking peptide (human); SNARRSLNFGGST; partner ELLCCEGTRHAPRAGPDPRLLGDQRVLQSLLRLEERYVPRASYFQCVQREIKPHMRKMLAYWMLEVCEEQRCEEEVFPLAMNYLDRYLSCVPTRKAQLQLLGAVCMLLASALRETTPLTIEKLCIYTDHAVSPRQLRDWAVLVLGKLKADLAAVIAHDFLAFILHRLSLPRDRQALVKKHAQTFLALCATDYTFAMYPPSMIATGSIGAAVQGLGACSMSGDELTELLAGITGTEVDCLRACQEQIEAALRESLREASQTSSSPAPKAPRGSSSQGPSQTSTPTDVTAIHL"}
{"Substitution": "R5N", "normalised enrichment score": 0.0363}
{"Substitution": "R4G", "normalised enrichment score": 0.103}
{"Substitution": "R4W", "normalised enrichment score": 0.0226}
{"Substitution": "R4T", "normalised enrichment score": 0.152}
{"Substitution": "T13A", "normalised enrichment score": 0.147}
{"Substitution": "T13V", "normalised enrichment score": 0.14}
{"Substitution": "R4F", "normalised enrichment score": 0.0459}
{"Substitution": "A3F", "normalised enrichment score": 0.135}
{"Substitution": "G10R", "normalised enrichment score": 0.045}
{"Substitution": "S12T", "normalised enrichment score": 0.125}
{"Substitution": "G10A", "normalised enrichment score": 0.124}
{"Substitution": "G11P", "normalised enrichment score": 0.0838}
{"Substitution": "N8T", "normalised enrichment score": 0.164}
{"Substitution": "F9S", "normalised enrichment score": 0.15}
{"Substitution": "G10D", "normalised enrichment score": 0.0976}
{"Substitution": "S6W", "normalised enrichment score": 0.183}
{"Substitution": "L7G", "normalised enrichment score": 0.127}
{"Substitution": "N2W", "normalised enrichment score": 0.136}
{"Substitution": "S12E", "normalised enrichment score": 0.226}
{"Substitution": "S6Q", "normalised enrichment score": 0.141}
{"data": "Study 3", "target": "Interferon regulatory factor 5, full length, phosphomimetic (IRF5, Homo sapiens, UniProt Q13568-2, residues 1-514, K96S/S451D/S453D/S456D/S462D)", "technique": "protein-binding microarray", "molecule type": "double-stranded DNA, one strand shown", "matrix": "in vitro", "concentration": "250 nM", "setting": "60-bp whole probe", "added": "salmon DNA 0.4 mg/ml", "reference": "random background probes", "reading": "higher = stronger binding", "constant ends, left off below": "GCCTAGCAC … GTCTTGATTCGCTTGACGCTGCTG"}
{"Sequence": "GACGGTACCGGTTTCGGGACGTGCTAG", "log fluorescence [z-score]": 3.15}
{"Sequence": "CAGAATTTACTTTCTACGTCGTGCTAG", "log fluorescence [z-score]": 3.34}
{"Sequence": "GACGGTTTCGGGCTGGGGACGTGCTAG", "log fluorescence [z-score]": 4.96}
{"Sequence": "TCACTTTTCTTTACTGAACTGTGCTAG", "log fluorescence [z-score]": 1.53}
{"Sequence": "TTAGGTATCGACTTGCGGTTAGTGCTA", "log fluorescence [z-score]": 4.09}
{"Sequence": "TTAGAACTGGGGACTGGGTTAGTGCTA", "log fluorescence [z-score]": -0.467}
{"Sequence": "GACGAACTGAGTCACGAGACGTGCTAG", "log fluorescence [z-score]": -0.268}
{"Sequence": "TAACCTTGAACTTTGGCCTCGTGCTAG", "log fluorescence [z-score]": 0.11}
{"Sequence": "CAGAGCCTCAGTCCTCACACAGTGCTA", "log fluorescence [z-score]": -0.464}
{"Sequence": "TCAGATATCAGTTTCGATTAGTGCTAG", "log fluorescence [z-score]": 9.97}
{"Sequence": "AACGGACTGCTTCTCCTGACGTGCTAG", "log fluorescence [z-score]": -0.566}
{"Sequence": "TCATTTCTGTGTCACAGACTGTGCTAG", "log fluorescence [z-score]": 2.29}
{"Sequence": "TTAGGTATCGGGTTTCAGTTAGTGCTA", "log fluorescence [z-score]": 5.02}
{"Sequence": "GAACATACTAGTTTCCATTTGTGCTAG", "log fluorescence [z-score]": 1.57}
{"Sequence": "TTAGAACTGAGTTTTGATTAGTGCTAG", "log fluorescence [z-score]": 0.797}
{"Sequence": "TTAGGTCTCGGACTGGGTTTGTGCTAG", "log fluorescence [z-score]": -0.491}
{"Sequence": "GACGATTTCATTATCGAGACGTGCTAG", "log fluorescence [z-score]": 3.23}
{"Sequence": "TTAGATATCAGACGGGATTAGTGCTAG", "log fluorescence [z-score]": 0.295}
{"Sequence": "TTAGATTTCAGTATCGAGTAGTGCTAG", "log fluorescence [z-score]": 5.19}
{"data": "Study 4", "target": "RNA binding protein fox-1 homolog 2, RRM domain, GST-SBP tag (RBFOX2, Homo sapiens, UniProt O43251-10, residues 100-194)", "technique": "RNA Bind-n-Seq", "molecule type": "RNA", "matrix": "in vitro", "concentration": "365 nM", "setting": "natural RNA segment, single round, ends assumed", "reference": "no-protein control", "reading": "higher = stronger binding", "constant ends, left off below": "GGGAGUUCUACAGUCCGACGAUC … UGGAAUUCUCGGGUGCCAA", "Residues (chain)": "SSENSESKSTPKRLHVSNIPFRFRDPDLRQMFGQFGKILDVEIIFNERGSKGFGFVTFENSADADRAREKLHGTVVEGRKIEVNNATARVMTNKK"}
{"Sequence": "GAAAUCUUUACCCUUUAGUACCCGAACCAGUCUCAAGGUGUUCUUUGGAAAUAACCAGGGUUAAAGUUUUUAAUUUCUCAGGAAGAGCUCUUCAGCAUGGCAGGACGUGU", "RBNS enrichment (R)": 3.22}
{"Sequence": "UCACAAGAACAGCACAGGAAAGUUCUGCCCCCGUGAUUCAAUUACCUCCCACUUGGUCCCACCCACGACACGUGGGAAUUGUGGGAGCUACAAUUCAAGAUGAGAUUUGG", "RBNS enrichment (R)": 0.813}
{"Sequence": "UGUUCCUCCACACAUGUAAAGGCACAGUGGCUCCGUGUGUUAAAAAACAGCUGUAUUUUAUGUAUGCUUUACUGAUAAGUGUGCCAAUAAUAAACUGUGUUAAUGACCAA", "RBNS enrichment (R)": 0.244}
{"Sequence": "GAUCGAGACUUCAGUUUCCAAUGUGUGGGGAGUCAGACCAGAAUAGAUACAGGUACUUUGAAACCACUAACCCUUCUUUACACGGGGCACAUAGGCCAGUCCGAGUUCUU", "RBNS enrichment (R)": 0.432}
{"Sequence": "UCUACCGCAGGCGUCCAGCCAGGAAAGAGCGACCCCCCUCUUGGACUGUCUUCUGGGCCCUUCCAAGCCCAUCUGUGGAGUCGCCUCCCUCCUUCCCCCCACCCCCGUGU", "RBNS enrichment (R)": 0.422}
{"Sequence": "AGUUUAAGUUUUAAACUAAAAGUUACAGAAUUGAAUGUGGAUACCGGCUUCAUUCACCCCCACUUGGAUUCUAAACAUGACCAGUGAAAUAGUGAAAGCUGACCACAGUU", "RBNS enrichment (R)": 0.25}
{"Sequence": "CCCCAAGUCCAGUACCUCUGGUAAAGUGGACUUCUUCCCCCAUCCCUAGAACCAGGGACCUAGAAACCACCAUUGGAAAGUCCCCAGGGAAUGGAAUACAGAGCCCAAGC", "RBNS enrichment (R)": 0.38}
{"Sequence": "AACCUGAACACUCAGCCCCAAGCUUCAGAAGAGUGAGAACCUCAUUUGAAAACUCAGCAGAACAUGAACAGAUGAAAUGCAAUCCUUCUGUCAUGGAAAUAUUCACAAGA", "RBNS enrichment (R)": 0.44}
{"data": "Study 5", "target": "Histone acetyltransferase KAT6A, both winged helices, GST fusion (KAT6A, Homo sapiens, UniProt Q92794, residues 1-181)", "technique": "protein binding microarray", "molecule type": "double-stranded DNA, one strand shown", "matrix": "in vitro", "concentration": "not given", "setting": "8-mer, flanks averaged, mean of 2 arrays, mostly near background", "reference": "not given", "reading": "higher = stronger binding", "Construct (chain)": "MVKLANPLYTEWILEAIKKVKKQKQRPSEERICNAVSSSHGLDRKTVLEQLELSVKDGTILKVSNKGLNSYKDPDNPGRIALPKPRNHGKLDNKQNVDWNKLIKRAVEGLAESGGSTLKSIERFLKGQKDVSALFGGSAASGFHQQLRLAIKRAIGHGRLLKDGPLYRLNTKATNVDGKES"}
{"Sequence": "ACGTACCG", "E-score": 0.0643}
{"Sequence": "ACCCCCAG", "E-score": -0.269}
{"Sequence": "CTTGTGTC", "E-score": -0.112}
{"Sequence": "AGAAAAAC", "E-score": 0.0717}
{"Sequence": "AGCTAACT", "E-score": -0.218}
{"Sequence": "GACCATCA", "E-score": -0.0781}
{"Sequence": "CCCTGCAA", "E-score": -0.0718}
{"Sequence": "GTCAATAA", "E-score": -0.05}
{"Sequence": "ACCCGACC", "E-score": 0.0762}
{"Sequence": "GGTACACC", "E-score": 0.139}
{"Sequence": "GCTAGTGA", "E-score": -0.125}
{"Sequence": "AATCAGGC", "E-score": -0.116}
{"Sequence": "CCCGAATC", "E-score": 0.000255}
{"Sequence": "GCTTCAAA", "E-score": -0.00284}
{"Sequence": "AACTGTCA", "E-score": -0.00975}
{"Sequence": "CCGCGCGC", "E-score": 0.411}
{"Sequence": "CATGAAGG", "E-score": -0.0429}
{"Sequence": "GCTACTCA", "E-score": -0.176}
